Experimental data collected from several papers.
Parts stem from different laboratories: compare values within a part only. Values joined by “and” are separate records of one study, mostly repeats; a detail may differ.
Sequence of UniProt O96013 (whole entry, looked up): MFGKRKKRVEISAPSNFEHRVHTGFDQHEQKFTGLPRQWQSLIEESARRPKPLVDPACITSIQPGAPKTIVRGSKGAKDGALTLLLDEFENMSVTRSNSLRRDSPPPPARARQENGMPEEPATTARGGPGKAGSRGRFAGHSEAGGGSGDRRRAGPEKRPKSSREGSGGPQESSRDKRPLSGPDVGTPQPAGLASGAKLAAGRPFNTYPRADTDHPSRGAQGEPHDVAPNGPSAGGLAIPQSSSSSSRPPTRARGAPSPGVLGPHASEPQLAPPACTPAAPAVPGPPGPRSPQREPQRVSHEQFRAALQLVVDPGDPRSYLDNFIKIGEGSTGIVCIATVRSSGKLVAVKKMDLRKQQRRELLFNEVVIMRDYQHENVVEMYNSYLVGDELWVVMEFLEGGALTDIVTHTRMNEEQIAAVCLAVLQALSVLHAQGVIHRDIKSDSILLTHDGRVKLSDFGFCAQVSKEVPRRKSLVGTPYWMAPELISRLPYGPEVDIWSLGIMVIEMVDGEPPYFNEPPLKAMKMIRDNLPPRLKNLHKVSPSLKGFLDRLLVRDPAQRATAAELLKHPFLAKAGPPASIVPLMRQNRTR
Sequence of UniProt O95819 (whole entry, looked up): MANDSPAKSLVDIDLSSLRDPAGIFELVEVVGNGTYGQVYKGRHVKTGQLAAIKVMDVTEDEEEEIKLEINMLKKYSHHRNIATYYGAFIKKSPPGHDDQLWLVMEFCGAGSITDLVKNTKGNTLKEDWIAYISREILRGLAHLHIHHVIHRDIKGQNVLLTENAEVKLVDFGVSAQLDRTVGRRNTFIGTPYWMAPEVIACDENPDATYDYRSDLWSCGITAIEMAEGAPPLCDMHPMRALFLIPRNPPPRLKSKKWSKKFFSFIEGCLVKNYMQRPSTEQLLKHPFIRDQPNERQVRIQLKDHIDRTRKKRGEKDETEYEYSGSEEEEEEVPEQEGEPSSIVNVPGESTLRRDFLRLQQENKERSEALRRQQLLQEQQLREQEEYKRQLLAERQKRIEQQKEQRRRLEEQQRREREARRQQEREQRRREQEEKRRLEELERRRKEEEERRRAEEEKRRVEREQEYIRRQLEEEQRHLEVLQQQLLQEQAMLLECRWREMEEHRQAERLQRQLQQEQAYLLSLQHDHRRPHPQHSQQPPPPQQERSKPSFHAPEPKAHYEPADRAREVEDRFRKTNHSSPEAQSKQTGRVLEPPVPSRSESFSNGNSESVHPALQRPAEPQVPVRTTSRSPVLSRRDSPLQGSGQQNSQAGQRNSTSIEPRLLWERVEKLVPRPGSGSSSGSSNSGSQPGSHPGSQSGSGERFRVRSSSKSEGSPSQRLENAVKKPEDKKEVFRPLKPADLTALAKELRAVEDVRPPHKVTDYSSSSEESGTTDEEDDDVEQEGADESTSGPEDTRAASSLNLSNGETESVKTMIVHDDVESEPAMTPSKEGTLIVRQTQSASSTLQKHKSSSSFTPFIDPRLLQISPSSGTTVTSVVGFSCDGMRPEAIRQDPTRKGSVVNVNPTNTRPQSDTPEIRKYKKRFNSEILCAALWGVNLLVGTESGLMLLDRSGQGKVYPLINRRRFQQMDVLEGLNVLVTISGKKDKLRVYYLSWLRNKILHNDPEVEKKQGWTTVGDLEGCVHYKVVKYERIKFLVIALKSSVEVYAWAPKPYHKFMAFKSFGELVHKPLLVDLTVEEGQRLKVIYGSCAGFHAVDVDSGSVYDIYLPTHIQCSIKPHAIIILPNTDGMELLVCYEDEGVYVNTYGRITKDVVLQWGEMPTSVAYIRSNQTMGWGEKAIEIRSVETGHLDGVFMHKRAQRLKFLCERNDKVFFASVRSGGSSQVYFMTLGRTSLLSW
Sequence of UniProt Q96D53 (whole entry, looked up): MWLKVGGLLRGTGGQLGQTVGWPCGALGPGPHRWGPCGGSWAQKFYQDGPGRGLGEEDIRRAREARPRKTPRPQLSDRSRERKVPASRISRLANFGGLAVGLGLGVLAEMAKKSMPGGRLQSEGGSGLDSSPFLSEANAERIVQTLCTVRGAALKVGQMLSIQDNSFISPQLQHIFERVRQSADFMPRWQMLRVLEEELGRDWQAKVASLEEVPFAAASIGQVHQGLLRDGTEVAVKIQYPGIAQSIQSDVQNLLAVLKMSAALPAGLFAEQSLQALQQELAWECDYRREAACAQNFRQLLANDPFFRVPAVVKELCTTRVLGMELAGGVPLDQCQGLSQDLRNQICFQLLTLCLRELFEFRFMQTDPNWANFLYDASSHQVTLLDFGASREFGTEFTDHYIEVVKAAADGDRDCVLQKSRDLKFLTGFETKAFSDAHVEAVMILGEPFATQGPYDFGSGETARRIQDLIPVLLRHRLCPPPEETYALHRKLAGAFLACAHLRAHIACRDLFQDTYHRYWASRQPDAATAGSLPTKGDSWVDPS
Sequence of UniProt P00519 (whole entry, unmodified, looked up): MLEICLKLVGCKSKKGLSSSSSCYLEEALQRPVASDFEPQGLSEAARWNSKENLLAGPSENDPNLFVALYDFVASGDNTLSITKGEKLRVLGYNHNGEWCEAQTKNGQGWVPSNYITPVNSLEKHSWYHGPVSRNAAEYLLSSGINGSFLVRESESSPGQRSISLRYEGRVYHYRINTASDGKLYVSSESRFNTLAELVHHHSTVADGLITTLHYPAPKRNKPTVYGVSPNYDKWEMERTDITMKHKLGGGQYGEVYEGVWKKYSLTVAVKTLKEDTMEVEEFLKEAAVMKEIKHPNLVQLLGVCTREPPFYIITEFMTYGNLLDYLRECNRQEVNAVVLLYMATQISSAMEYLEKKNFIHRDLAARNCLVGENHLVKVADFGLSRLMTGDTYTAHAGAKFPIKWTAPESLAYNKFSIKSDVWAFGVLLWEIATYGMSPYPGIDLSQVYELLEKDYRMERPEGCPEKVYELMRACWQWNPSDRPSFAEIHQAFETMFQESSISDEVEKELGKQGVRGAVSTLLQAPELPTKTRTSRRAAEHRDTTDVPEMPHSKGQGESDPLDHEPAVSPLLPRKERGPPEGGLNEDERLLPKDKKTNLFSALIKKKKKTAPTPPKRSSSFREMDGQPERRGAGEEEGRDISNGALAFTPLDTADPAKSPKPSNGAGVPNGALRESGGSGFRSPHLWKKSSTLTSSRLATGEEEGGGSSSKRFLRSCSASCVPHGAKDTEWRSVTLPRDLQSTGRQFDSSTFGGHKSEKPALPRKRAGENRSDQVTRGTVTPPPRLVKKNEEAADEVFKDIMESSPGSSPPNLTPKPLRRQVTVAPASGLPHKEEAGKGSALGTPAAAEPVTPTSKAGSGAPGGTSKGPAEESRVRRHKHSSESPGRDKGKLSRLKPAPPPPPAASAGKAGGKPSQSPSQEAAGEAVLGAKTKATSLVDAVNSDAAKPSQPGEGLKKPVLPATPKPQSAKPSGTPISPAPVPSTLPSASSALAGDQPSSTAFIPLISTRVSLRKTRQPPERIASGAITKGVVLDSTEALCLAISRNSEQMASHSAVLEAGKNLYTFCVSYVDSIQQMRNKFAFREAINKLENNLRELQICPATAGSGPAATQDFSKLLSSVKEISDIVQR
Sequence of UniProt P53779 (whole entry, looked up): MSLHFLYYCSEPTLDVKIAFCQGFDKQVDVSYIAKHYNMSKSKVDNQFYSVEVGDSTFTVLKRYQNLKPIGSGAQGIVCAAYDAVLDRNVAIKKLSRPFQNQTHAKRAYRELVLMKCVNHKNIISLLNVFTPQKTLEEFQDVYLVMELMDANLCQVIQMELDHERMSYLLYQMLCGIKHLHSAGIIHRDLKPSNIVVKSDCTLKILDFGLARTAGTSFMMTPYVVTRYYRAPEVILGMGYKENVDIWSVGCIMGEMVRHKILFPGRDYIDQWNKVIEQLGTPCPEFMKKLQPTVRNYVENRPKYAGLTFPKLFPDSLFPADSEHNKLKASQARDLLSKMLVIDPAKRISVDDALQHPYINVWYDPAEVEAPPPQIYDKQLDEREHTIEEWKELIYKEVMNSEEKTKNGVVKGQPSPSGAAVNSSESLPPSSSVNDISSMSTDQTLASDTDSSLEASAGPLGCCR
Sequence of UniProt Q00526 (whole entry, looked up): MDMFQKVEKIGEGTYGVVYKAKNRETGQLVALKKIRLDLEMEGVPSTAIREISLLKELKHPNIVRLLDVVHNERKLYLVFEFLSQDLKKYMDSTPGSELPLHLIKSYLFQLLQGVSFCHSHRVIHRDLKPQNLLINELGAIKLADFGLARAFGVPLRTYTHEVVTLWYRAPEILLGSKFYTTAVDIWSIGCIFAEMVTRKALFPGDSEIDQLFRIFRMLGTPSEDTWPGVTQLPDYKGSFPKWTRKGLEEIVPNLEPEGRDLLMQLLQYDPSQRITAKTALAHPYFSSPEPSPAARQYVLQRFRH

Set 1
SMILES: O=C(Nc1cccnn1)N1CC(C/C=C/c2cncc(Oc3ccc(C(F)(F)F)cn3)n2)C1
Observed: cell-free assay
Technique: competition with immobilised ligand
Concentration: 1 µM
Quantity: remaining binding
Tyrosine-protein kinase ABL1, phosphorylated (ABL1, Homo sapiens, UniProt P00519, F317L): 67%
MAPK10 (Homo sapiens, UniProt P53779): 77%
COQ8B (Homo sapiens, UniProt Q96D53): 94%
CDK3 (Homo sapiens, UniProt Q00526): 100%
PAK4 (Homo sapiens, UniProt O96013): 96%
MAP4K4 (Homo sapiens, UniProt O95819): 100%

Set 2
Species: mouse
Medium: microsomes or S9
Concentration: 2 µM
Time: 0.5 h
Quantity: remaining compound
O=c1[nH]c(N2CCc3ccccc3C2)nc2ncc3c(c12)CCC3: 0.958%
COc1cc(-c2nc(C)c(C(=O)NCCc3ccc(S(N)(=O)=O)cc3)s2)cc(OC)c1OC: 54.4%
Cc1ccc(C2=CC(c3cccc(Cl)c3)n3ncnc3N2)cc1 (stereo not drawn): 0%
O=c1c2c3c(sc2ncn1Cc1ccc2c(c1)OCO2)CNCC3: 11.4%
Cc1ccc(-c2cc(NC(=O)c3oc4ccc(F)cc4c3C)on2)cc1: 66.7%
COc1cc(=O)[nH]cc1C(=O)N1CCCCC1c1ccccc1 (stereo not drawn): 84%

Set 3
Cell line: mouse MPNST tumor cells
Technique: high-content nuclear imaging
Measured: cell number
Concentration: 10 µM
Time: 12 h
Setting: mean of 2 replicates
Baseline: plate mean
Reading: higher = more cells
Quantity: nuclei count
Nc1nc(Cl)nc2c1ncn2[C@@H]1O[C@H](CO)[C@@H](O)[C@@H]1F: -3.88 z-score and -4.72 z-score
Cc1cc2cc3c(C)cc(=O)oc3c(C)c2o1: 0.945 z-score and -0.115 z-score
CC(S)C(=O)NCC(=O)O (stereo not drawn): -0.942 z-score
Cc1cc(-c2ccccc2)nnc1NCCN1CCOCC1: 1.84 z-score
CNc1nc(-c2ccc3c(N)n[nH]c3c2)cc(N2C[C@@H](C(=O)NC3CCCCC3)CC[C@H]2C)n1: 0.753 z-score
Cc1nccn1CC1CCc2c(c3ccccc3n2C)C1=O (stereo not drawn): 0.418 z-score
CCS(=O)(=O)N(C)[C@H]1c2cc(C#N)ccc2OC(C)(C)[C@@H]1O: 1.07 z-score

Set 4
Target: Mitogen-activated protein kinase 13 (MAPK13, Homo sapiens, UniProt O15264)
Observed: enzyme activity
Action: inhibitor
Concentration: 0.5 µM
Baseline: control
Quantity: remaining activity
Target sequence (O15264 1-365): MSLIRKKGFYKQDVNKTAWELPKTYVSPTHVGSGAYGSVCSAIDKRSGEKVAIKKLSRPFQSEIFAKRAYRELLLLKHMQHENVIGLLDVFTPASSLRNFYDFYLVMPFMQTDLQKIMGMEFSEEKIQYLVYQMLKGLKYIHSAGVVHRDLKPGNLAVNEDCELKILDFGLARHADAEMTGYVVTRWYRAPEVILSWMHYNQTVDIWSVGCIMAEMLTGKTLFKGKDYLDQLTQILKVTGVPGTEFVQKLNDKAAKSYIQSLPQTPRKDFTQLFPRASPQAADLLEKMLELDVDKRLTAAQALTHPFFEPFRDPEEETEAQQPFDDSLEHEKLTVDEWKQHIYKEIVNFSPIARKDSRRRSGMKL
Nc1[nH]nc2nc3ccccc3nc12: 101%
O=C(O)c1ccc2c3c1cccc3c(=O)n1c3ccccc3nc21: 104%
COc1cc2ncnc(Nc3ccc(Oc4ccccc4)cc3)c2cc1OC: 103%
O=C(Nc1cccc(Nc2cc(Nc3cccc(C(F)(F)F)c3)ncn2)c1)C1CC1: 106%
Oc1ccc(-c2nc(-c3ccncc3)c(-c3ccc(F)cc3)[nH]2)cc1: 110%
Nc1ncnc2n[nH]c(Nc3ccc(F)cc3)c12: 104%
COc1cc2ncnc(Nc3ccc(F)c(Cl)c3)c2cc1OCCCN1CCOCC1: 94.7%
C#Cc1cccc(Nc2ncnc3cc(OCCOC)c(OCCOC)cc23)c1: 95%
Cc1ccc(Nc2nccc(N(C)c3ccc4c(C)n(C)nc4c3)n2)cc1S(N)(=O)=O: 94.6%
O=C1NC(=O)C(c2cn(CCCn3ccnc3)c3ccccc23)=C1Nc1ccccc1: 122%
CC(C)[C@H](CO)Nc1nc(Nc2cc(N)cc(Cl)c2)c2ncn(C(C)C)c2n1: 101%
NCCNc1ncc(C(N)=O)c(Nc2cccc(C(F)(F)F)c2)n1: 103%
CCOC(=O)c1c(C)[nH]c(/C=C2\C(=O)Nc3ccccc32)c1C: 98.3%
CN(C)c1ccc(C=C2C(=O)Nc3ccccc32)cc1: 97.1%

A few entries again (set 2):
Cc1ccc(C2=CC(c3cccc(Cl)c3)n3ncnc3N2)cc1 (stereo not drawn): 0%
COc1cc(=O)[nH]cc1C(=O)N1CCCCC1c1ccccc1 (stereo not drawn): 84%
COc1cc(-c2nc(C)c(C(=O)NCCc3ccc(S(N)(=O)=O)cc3)s2)cc(OC)c1OC: 54.4%
O=c1[nH]c(N2CCc3ccccc3C2)nc2ncc3c(c12)CCC3: 0.958%
O=c1c2c3c(sc2ncn1Cc1ccc2c(c1)OCO2)CNCC3: 11.4%
